Measurements of several laboratories.
Numbered parts are unrelated; each lists some results of a single study.

Series 1 — technique: RNA Bind-n-Seq; molecule type: RNA; medium: in vitro; concentration: 200 nM; notes: whole 134-nt RNA, ends assumed; together with: 150 mM KCl; reference: input library; direction: higher = stronger binding
Target: Ras GTPase-activating protein-binding protein 1, full length (G3BP1, Homo sapiens, UniProt Q13283)
UniProt Q13283, sequence (whole entry, looked up): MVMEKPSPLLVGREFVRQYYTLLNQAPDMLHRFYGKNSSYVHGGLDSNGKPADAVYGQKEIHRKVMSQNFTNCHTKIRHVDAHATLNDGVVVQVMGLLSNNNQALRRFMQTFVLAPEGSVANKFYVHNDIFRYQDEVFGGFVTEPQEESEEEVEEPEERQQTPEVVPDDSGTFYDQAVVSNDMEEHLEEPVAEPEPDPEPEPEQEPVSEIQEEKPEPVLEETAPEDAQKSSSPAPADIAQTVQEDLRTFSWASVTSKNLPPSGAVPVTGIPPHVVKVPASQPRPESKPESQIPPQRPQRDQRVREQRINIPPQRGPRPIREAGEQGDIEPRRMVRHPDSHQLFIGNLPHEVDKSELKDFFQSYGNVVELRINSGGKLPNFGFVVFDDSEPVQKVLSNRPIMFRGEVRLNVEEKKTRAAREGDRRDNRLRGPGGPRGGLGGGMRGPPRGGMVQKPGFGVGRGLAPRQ
| Oligonucleotide | log2 enrichment |
| --- | --- |
| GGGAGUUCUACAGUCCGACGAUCCCUCAAGUCCUGUGCUACACAUCGUAUGUACCGAAUCGGUGGUGGGGUGGGGAAAGUAUUAUGUUACGCCGUUCGGAUCUGCACUUCCAGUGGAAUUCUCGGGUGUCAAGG | 0.387 |
| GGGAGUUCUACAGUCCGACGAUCACCAUGCAGGUGGGCAUCUUUGGGAAGUGGGGCAAGGGGGGGAUAGGGAGGGGGGUAACACUUCGGGAACAGGUGGUCCCAGGUCGUUUCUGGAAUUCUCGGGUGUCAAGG | 1.31 |
| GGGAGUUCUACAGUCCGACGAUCAAGUCCUGUGCUACACAUCGUAUGUACCGAAUCGGGGUUUGGGUUUGGGGUUUGGGGAAAGUAUUAUGUUACGCCGUUCGGAUCUGCACUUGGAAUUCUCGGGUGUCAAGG | 0.294 |
| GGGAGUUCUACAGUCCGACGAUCGAGGGAGUUUGCAGAUACCUCAGGAUUCGUGACAAUGCCUUUAAAGAUCCAGGAGAGAUGUUCAGCUACUAGGAACUGCUAGCAAGUAUAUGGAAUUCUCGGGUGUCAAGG | -0.596 |
| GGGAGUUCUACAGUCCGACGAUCAAGUCCUGUGCUACACAUCGUAUGUACCGAAUCGGGUUUGGGAAAGGGAAAAAGGGAAAGUAUUAUGUUACGCCGUUCGGAUCUGCACUUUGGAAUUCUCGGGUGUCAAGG | 0.238 |
| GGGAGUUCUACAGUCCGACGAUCAGUCCUGUGCUACACAUCGUAUGUACCGAAUCGGGGAGGGGUUUUUGGGGUUUGGGGAAAGUAUUAUGUUACGCCGUUCGGAUCUGCACUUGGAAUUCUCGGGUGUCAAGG | 0.426 |
| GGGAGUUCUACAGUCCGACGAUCUCCUGUGCUACACAUCGUAUGUACCGAAUCGGGGAGGGGUUUUUGGGGUUUUUUUGGGGAAAGUAUUAUGUUACGCCGUUCGGAUCUGCAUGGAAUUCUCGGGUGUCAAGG | 0.645 |
| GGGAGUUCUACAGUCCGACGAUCUGUGCUACACAUCGUAUGUACCGAAUCGGGGCCCCCCCGGCCCCCCCGGGGCCCCCCCGGGGAAAGUAUUAUGUUACGCCGUUCGGAUCUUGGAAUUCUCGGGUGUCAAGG | -1.6 |
| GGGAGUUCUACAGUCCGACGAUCCACAGACAACACGCACCCACACAGACACAGAGGGAAGGGGUUGGGAUGGGGACAGGGUGCACAGCAGGGCGGGGUAGUACCCCAGCCCCUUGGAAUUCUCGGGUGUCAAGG | 1.82 |
| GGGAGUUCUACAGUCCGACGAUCGCAGGAAGUAAAAACAAAUGGAAAUGCUUCGAAUAGUGGCAGGGGUGGGGGUUGCUAAGGAAAGGGUGGGAUGGGAGUGGGUAAAGAGUUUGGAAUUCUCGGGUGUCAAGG | 1.1 |

Series 2 — technique: RNA Bind-n-Seq; molecule type: RNA; medium: in vitro; concentration: 365 nM; reference: no-protein control; direction: higher = stronger binding
Target: RNA binding protein fox-1 homolog 2, RRM domain, GST-SBP tag (RBFOX2, Homo sapiens, UniProt O43251-10, residues 100-194)
Notes: natural RNA segment, single round, ends assumed
Residues (chain): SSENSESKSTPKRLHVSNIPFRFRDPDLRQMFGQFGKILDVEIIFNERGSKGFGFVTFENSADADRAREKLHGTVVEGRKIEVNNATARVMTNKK
| Oligonucleotide | RBNS enrichment (R) |
| --- | --- |
| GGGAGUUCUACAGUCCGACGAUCCCACUCUCCGCUAAGCGGGAGGCUGCUGUUAGAGCAGGCUGCUUCCUGCCUAAAGCAGGCCCUUCGGGGCUCGCUGCACACACAUCUCUGGCUCUCCAGGCUUCGUGUUCUGGAAUUCUCGGGUGCCAA | 0.371 |
| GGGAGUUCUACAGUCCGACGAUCUUUGUACUGUCCUGUCCCAUCUCCCUGUCCCCGCCUGUCCCCGUCCCCUCUGUCAUGGCAGCUCUGCAGGGGCAUGAAUCUGAGUGACGAGAGCCUGCGUUCUUCUGCCUUGGAAUUCUCGGGUGCCAA | 10.7 |
| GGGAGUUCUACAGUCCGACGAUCGUGCUGUGGGGAAACAGAAGCGUUACAGACCGGGCCAGGCUGCCUGGCUGCUGCUCCCUCUGGGCUCAUAGCUGGCCCACUUGACGGUCCCUGGUGGCUUCUGGAGGGAAUGGAAUUCUCGGGUGCCAA | 0.46 |
| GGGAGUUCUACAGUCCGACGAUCCUAUAGUUUCCAAAGAAACUUAACUUCCUGGGUAUUAACUUAAUUUUAUUAGAACACUGCAGUUGACUGAAAACAUGCAGAUGCACUGGAAGAGAACCUUGUGCUGAGGUUGGAAUUCUCGGGUGCCAA | 0.401 |
| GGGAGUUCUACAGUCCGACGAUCUUUAAAAUAAGUUAAAGGCAGUCCAGAGCUUUUCAGCCAAUUUGUCUCCUACUCUGUGUAAAUAUUUUUCCCUCCGGGCAGGGGAGCCAGGGUAGAGCAAAGGAGACAAAUGGAAUUCUCGGGUGCCAA | 0.598 |
| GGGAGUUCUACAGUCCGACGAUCAGAGCACAGAGGCCAGCCCCUCUGUCUAGAAGGCACAUGCAACUAUGGUGUCUGCAUCUCAGCAGAUCUGGUCUGAGGGAGCGAUUCCUGUGUGGCGCCGUCCAUCUGGCUGGAAUUCUCGGGUGCCAA | 0.436 |
| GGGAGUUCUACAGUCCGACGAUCAUUCGAAUGACUUCAUUUUUCCCACCCUGUGGGUCAGUUUGUGACUUUUGGAAUUUUCCACAGGUACCUGUACAACUUGAUAUUUGAAAACAGGAUUCAUCACCAUAUAUUGGAAUUCUCGGGUGCCAA | 0.325 |
| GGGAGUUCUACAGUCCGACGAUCCUUGGGCGCUUCCCACCUGCCCCGUCCCCCUAGAGACUCAGAGGACCCACCUGGGCCAAGGACUCCAAAGCCGCGGGGACACCGGGAAGUGCAGCGGGCCAGGCAGGCUGUGGAAUUCUCGGGUGCCAA | 0.319 |
| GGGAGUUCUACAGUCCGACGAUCACUCACAACCCCGAUCUGCAAGGUAUCGUUAAGGAAUGAGUAUCUUCAGUGUGGCAAAGGAGUAGUGUAGUUCCCUCCACAGGCCCUGUCGUAAUAAAAGCCUCAGUGCAUGGAAUUCUCGGGUGCCAA | 0.529 |
| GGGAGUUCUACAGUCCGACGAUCCAAAGAAUCUCAAAUGUAAAAUUUUAUAUUGGGUUUGAACCACUGACGUGUCCAUUCUGAUAUAUGCAGUCAUUUUGAAUUUGGUCUGUGCCUUCUCUGGAUCCCUCCCUUGGAAUUCUCGGGUGCCAA | 0.268 |
| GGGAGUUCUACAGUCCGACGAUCAUUCAUAGCCCCGUCACAGGAAGUGGGAGAUGCUCCUUUUUGUCCCAGACUGGAAAUCCAUCACAUCCCAAGGCUCCUUGGCAGUCAUCUGUCUGUGUGGCUUGUUCUGUUGGAAUUCUCGGGUGCCAA | 0.217 |
| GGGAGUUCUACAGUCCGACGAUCAAUAUAGCAGCAUCGUUUCCUUUUUCAGUGAAAUUUCAACCAUAAGUAGAAAAGAAUUGUUUACUAUUUGACCCACAUAUUAAACAUGCUUUUUUUCUCUAUUAUGGCAAUGGAAUUCUCGGGUGCCAA | 1.11 |

Series 3 — technique: universal PBM; molecule type: double-stranded DNA, one strand shown; medium: in vitro; concentration: 600 nM; direction: higher = stronger binding
Target: Sal-like protein 4, full length isoform A (SALL4, Homo sapiens, UniProt Q9UJQ4, residues 1-1053)
UniProt Q9UJQ4, sequence (whole entry, looked up): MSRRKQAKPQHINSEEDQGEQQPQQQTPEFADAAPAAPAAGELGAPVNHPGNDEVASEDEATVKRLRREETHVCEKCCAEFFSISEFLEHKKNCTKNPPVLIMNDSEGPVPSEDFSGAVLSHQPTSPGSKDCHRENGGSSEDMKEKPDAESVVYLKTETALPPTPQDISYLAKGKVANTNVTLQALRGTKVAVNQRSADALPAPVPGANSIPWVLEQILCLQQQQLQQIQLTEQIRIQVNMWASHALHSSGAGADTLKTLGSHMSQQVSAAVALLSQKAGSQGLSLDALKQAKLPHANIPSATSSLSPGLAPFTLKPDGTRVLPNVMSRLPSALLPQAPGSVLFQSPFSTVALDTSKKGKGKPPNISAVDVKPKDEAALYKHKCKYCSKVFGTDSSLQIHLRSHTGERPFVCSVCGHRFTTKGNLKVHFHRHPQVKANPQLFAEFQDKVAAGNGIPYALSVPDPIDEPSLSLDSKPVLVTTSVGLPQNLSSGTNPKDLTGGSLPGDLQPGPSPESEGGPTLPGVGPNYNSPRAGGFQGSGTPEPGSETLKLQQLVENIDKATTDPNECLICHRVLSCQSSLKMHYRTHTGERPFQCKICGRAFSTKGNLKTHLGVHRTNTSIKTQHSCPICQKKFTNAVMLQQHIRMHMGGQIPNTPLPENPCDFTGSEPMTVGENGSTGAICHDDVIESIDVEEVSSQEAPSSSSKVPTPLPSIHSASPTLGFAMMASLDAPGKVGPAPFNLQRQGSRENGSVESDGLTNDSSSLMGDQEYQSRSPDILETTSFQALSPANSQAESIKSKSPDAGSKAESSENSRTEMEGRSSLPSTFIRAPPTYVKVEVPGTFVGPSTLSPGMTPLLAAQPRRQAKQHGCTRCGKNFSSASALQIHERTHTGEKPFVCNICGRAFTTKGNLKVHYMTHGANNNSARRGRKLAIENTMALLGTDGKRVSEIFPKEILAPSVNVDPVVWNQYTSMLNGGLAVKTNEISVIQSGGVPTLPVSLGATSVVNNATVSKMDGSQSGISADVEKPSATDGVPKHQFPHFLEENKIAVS
Notes: 8-mer, flanks averaged, mean of replicates
| Oligonucleotide | E-score |
| --- | --- |
| CTTGGGCC | -0.318 |
| AACCCTAT | 0.0398 |
| CACACTGA | -0.0583 |
| CCCTGGGC | -0.432 |
| TAAGTTGA | 0.0693 |
| ACCTTACC | -0.032 |
| TCGTCTAA | -0.0146 |
| TGAGTGCA | -0.0584 |
| ACTTCCAT | 0.102 |
| CCTTCTAG | -0.102 |
| AGTCTCGC | -0.148 |
| GAAGCCGA | -0.205 |
| AGCAACAC | -0.061 |
| AGTTCTAA | 0.111 |
| GAGCTGAC | -0.209 |
| CATCATCC | -0.0593 |
| ACGAATAT | 0.349 |
| GACACAAC | 0.126 |
| CATTTTCG | 0.176 |
| AAAAGTCT | 0.174 |
| TAGAGGCA | 0.00971 |
| AAAAACGT | 0.114 |
| TAAGTGAA | 0.194 |
| CATCCGCG | -0.0987 |

Series 4 — technique: protein-binding microarray; molecule type: double-stranded DNA, one strand shown; medium: in vitro; concentration: 250 nM; notes: 60-bp whole probe; together with: salmon DNA 0.4 mg/ml; reference: random background probes; direction: higher = stronger binding; all sequences stand within: GCCTAGCAC … GTCTTGATTCGCTTGACGCTGCTG
Target: Interferon regulatory factor 5, full length, phosphomimetic (IRF5, Homo sapiens, UniProt Q13568-2, residues 1-514, K96S/S451D/S453D/S456D/S462D)
| Oligonucleotide | log fluorescence [z-score] |
| --- | --- |
| ATCTGCAGCTGACTACACACGTGCTAG | -0.406 |
| AAAGATATAAATGTAACATGGTGCTAG | 0.262 |
| GACGGGCTGGGTTTCGGGACGTGCTAG | 2 |
| TTAGGTTTCGATCTCGGTTAGTGCTAG | 9.23 |
| TCATATATACACTTATGACTGTGCTAG | 0.524 |
| GCCGATATCGGGTATCGAGACGTGCTA | 3.9 |
| GACGGTTTCCGGACTGGGGACGTGCTA | -0.0573 |
| TGTAGCTGGAGAAGTAAAACGTGCTAG | -0.253 |
| GACGGTTTCGGGTATTGGGACGTGCTA | 7.81 |
| TTAGGACTGCTTATGCTTTAGTGCTAG | -0.405 |
| TCAAGTCTTGTTTTACAACTGTGCTAG | 0.204 |
| TTAGGTTTCAGTTCCGGTTAGTGCTAG | 6.15 |
| GACGGTTTCGGTATCCGGACGTGCTAG | 9.65 |
| TCAATTCTCCACTTGTGACTGTGCTAG | 0.349 |
| TTAGTTTTCGGGTATCGGTTAGTGCTA | 8.14 |
| TTAGGTTTCGGGTAACGGTTAGTGCTA | 8.85 |

Excerpt of the above (series 4):
| Oligonucleotide | log fluorescence [z-score] |
| --- | --- |
| GACGGTTTCCGGACTGGGGACGTGCTA | -0.0573 |
| GCCGATATCGGGTATCGAGACGTGCTA | 3.9 |
| GACGGTTTCGGTATCCGGACGTGCTAG | 9.65 |
| TTAGGTTTCAGTTCCGGTTAGTGCTAG | 6.15 |
